Experimental data collected from several papers.
Protocols differ between the studies behind these lines.

SMILES | species | matrix | route | dose | time | notes | concentration
Brc1ccccc1-c1nnc(CSc2nnnn2-c2ccccc2)o1 | male C57BL/6 mouse | brain | intraperitoneal | 10 mg/kg | 6 h |  | 78 nM
CCC(=O)N(C)c1ccc(Cl)c(Cl)c1 | mouse | brain | subcutaneous | 40 mg/kg | 15 min |  | 2440 nM
CC(C)(O)c1ccc(N2Cc3c(ccnc3-c3ccc(F)cc3OCC(F)(F)F)C2=O)cc1 | male C57BL/6 mouse | plasma | oral | 1 mg/kg | 6 h |  | ~167 nM
CC(C)C(=O)NC1CC=C(c2cc3c(Nc4ccc5scnc5c4)ncnc3s2)CC1 (stereo not shown) | BALB/c mouse | plasma | oral | 10 mg/kg | 6 h |  | 8.76 ng/mL
CC(C)Cn1c(SCC(=O)N2CCc3ccccc3C2)nc2cc(Cl)ccc2c1=O | male C57BL/6 mouse | brain | intraperitoneal | 10 mg/kg | 24 h |  | 78 nM
COc1cccc(C2CC(c3ccccc3Cl)Nc3nc(N)nn32)c1 (stereo not shown) | male CD-1 mouse | plasma | intraperitoneal | 20 mg/kg | 3 h | single dose | 27000 nM
CC(C)NC(=O)N1CC=C(c2cc3c(Nc4ccc5scnc5c4)ncnc3s2)C1 | BALB/c mouse | plasma | oral | 10 mg/kg | 6 h |  | 52.8 ng/mL
C#CCN(CCCNC(=O)CCCCC[N+]1=C(/C=C/C2=C(Cl)C(=C/C=C3\N(CCCCCC(=O)[O-])c4ccccc4C3(C)C)/CCC2)C(C)(C)c2ccccc21)CCCOc1ccc(Cl)cc1Cl | C57BL/6 mouse | plasma | intravenous | 5 mg/kg | 1 h |  | 590 ng/mL
COc1cnc2cccc(N3CCc4c(cc(Cn5ccnc5)cc4-c4cn(C)nc4C(F)(F)F)C3=O)c2c1 | female nude mouse | tumour | intraperitoneal | 100 mg/kg | 6 h | single dose, tumour-bearing | 23300 ng/g
CCC(=O)NC1CC=C(c2cc3c(Nc4ccc5scnc5c4)ncnc3s2)CC1 (stereo not shown) | BALB/c mouse | plasma | oral | 10 mg/kg | 6 h |  | 29.2 ng/mL

Repeated from above:
SMILES | species | matrix | route | dose | time | notes | concentration
CCC(=O)N(C)c1ccc(Cl)c(Cl)c1 | mouse | brain | subcutaneous | 40 mg/kg | 15 min |  | 2440 nM
